Published values collected from several papers.
Compare with care: the assays were run in different laboratories. Numbers after ± are the reported error. No end group written: not given here.
CHRM4: Muscarinic acetylcholine receptor M4 (CHRM4, Homo sapiens, UniProt P08173)
Sequence of UniProt P08173 (whole entry, looked up): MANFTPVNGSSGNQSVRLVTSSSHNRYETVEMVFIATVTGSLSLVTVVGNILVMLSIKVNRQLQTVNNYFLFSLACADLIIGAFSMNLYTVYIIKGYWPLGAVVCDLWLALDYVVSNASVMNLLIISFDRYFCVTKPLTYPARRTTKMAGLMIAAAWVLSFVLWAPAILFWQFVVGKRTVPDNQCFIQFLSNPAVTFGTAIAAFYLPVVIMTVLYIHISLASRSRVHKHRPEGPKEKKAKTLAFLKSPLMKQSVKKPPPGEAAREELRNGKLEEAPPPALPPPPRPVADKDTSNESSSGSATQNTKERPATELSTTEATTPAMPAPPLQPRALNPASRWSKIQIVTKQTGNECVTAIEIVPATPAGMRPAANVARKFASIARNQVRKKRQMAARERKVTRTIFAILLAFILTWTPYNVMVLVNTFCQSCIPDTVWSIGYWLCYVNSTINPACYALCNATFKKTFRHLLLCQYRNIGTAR
CHRM1: Muscarinic acetylcholine receptor M1 (CHRM1, Homo sapiens, UniProt P11229)
Sequence of UniProt P11229 (whole entry, looked up): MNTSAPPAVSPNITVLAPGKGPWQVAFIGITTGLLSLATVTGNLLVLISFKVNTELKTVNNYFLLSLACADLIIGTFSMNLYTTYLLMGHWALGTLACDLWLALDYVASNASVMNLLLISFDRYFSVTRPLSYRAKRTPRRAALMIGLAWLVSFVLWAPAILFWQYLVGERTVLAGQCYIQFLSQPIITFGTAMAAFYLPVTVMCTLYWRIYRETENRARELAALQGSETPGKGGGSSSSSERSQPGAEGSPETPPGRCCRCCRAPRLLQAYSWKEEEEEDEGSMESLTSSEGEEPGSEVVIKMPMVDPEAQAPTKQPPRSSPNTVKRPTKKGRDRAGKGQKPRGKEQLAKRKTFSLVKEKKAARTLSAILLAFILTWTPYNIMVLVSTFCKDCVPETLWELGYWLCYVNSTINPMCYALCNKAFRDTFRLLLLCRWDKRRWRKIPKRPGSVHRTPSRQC
T1: DNA hairpin, hairpin; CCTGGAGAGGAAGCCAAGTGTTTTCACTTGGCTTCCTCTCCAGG
T2: DNA G4, G-quadruplex (Homo sapiens); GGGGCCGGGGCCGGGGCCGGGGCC
T3: c-di-GMP riboswitch (Clostridium acetobutylicum); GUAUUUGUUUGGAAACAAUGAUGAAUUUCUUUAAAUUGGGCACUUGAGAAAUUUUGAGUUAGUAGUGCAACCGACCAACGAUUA
B1: side-chain stapled; chain FRTKQEARKSTGG (also: sidechain bridge or staple (positions not given here))
Sequence of UniProt P12369 (whole entry, unmodified, looked up): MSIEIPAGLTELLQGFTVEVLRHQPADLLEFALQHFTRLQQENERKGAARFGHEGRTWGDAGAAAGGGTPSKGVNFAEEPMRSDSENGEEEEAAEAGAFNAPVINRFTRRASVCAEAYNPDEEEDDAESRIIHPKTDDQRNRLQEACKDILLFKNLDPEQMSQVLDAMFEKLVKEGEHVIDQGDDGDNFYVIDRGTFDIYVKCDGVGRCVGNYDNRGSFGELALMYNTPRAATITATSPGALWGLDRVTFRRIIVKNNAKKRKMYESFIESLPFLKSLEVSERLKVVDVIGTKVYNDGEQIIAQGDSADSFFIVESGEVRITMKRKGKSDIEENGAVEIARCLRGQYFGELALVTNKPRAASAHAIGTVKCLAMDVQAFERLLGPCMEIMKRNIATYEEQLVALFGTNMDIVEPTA
Sequence of UniProt Q9Y5Y9 (whole entry, looked up): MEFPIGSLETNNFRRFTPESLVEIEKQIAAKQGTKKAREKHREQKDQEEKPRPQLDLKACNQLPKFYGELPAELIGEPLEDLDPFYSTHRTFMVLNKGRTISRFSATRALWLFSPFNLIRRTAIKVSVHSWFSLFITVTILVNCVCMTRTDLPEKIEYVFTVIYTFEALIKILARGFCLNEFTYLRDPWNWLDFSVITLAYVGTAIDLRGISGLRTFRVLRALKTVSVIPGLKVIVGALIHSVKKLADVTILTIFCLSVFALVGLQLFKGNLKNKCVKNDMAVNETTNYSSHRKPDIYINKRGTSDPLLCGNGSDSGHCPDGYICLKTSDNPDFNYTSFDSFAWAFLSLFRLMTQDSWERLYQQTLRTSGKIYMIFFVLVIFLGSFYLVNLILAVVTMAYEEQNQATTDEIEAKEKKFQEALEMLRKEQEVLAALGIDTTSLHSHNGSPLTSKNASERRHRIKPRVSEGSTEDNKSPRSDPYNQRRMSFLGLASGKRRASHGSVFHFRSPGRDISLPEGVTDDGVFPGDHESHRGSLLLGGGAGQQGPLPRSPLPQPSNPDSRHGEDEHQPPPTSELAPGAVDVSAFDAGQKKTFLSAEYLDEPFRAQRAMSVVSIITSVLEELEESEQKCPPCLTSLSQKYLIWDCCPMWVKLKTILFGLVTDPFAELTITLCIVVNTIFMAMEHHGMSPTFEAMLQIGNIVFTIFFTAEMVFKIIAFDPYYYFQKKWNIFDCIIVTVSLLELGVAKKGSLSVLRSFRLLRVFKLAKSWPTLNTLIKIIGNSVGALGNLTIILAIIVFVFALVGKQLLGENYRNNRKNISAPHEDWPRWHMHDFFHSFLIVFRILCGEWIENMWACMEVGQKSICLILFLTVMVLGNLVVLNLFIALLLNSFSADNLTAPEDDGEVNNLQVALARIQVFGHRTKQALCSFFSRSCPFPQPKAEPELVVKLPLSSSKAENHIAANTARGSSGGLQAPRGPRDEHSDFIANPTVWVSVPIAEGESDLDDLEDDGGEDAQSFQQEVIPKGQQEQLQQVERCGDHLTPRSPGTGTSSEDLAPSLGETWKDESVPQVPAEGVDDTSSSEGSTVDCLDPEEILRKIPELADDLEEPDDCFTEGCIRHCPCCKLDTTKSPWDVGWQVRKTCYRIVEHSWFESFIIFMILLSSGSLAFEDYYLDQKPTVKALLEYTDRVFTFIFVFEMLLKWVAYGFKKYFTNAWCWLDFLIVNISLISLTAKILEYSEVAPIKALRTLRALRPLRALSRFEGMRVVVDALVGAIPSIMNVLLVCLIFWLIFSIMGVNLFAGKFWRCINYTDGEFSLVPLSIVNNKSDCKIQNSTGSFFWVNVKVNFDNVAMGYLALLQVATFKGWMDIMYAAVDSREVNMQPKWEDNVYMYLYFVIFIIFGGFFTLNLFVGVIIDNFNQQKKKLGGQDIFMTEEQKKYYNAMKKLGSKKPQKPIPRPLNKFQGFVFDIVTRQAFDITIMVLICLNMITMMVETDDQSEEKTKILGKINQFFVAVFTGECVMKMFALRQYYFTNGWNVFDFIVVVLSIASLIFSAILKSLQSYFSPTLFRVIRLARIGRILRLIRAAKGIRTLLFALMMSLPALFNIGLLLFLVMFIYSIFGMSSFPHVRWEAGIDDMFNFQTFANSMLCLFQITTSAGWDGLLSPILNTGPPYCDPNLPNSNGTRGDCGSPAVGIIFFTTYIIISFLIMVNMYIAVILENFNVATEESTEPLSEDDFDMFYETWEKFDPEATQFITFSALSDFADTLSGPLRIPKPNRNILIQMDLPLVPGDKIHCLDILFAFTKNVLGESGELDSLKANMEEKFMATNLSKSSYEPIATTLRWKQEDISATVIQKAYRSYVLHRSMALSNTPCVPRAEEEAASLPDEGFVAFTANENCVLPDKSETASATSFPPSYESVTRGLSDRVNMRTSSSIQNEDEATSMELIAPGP
Sequence of UniProt O58586 (whole entry, looked up): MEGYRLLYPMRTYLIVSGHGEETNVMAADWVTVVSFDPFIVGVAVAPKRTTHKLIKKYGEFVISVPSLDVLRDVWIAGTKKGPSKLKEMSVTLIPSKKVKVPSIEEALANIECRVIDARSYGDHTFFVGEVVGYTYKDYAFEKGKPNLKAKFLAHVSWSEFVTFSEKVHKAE
Sequence of UniProt P00813 (whole entry, looked up): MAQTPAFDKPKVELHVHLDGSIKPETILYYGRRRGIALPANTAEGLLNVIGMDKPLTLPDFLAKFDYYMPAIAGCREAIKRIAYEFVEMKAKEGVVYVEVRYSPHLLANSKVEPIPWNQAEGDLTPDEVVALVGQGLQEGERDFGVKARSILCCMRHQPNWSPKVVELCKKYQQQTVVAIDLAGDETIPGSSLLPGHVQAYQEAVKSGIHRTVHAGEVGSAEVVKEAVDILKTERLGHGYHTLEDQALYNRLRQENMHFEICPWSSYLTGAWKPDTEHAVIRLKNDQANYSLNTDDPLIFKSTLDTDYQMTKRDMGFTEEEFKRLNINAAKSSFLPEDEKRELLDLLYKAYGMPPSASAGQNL
Sequence of UniProt Q8WTS6 (whole entry, looked up): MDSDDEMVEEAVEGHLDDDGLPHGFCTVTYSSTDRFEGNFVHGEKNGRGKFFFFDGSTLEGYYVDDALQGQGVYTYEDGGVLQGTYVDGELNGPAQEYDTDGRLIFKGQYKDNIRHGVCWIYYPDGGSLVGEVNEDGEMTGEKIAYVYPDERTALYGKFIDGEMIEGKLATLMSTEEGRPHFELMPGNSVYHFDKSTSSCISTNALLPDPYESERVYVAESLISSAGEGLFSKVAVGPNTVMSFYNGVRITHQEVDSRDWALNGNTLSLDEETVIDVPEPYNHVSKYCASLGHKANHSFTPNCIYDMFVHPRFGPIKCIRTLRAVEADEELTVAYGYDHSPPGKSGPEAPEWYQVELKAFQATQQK
Sequence of UniProt P37231 (whole entry, looked up): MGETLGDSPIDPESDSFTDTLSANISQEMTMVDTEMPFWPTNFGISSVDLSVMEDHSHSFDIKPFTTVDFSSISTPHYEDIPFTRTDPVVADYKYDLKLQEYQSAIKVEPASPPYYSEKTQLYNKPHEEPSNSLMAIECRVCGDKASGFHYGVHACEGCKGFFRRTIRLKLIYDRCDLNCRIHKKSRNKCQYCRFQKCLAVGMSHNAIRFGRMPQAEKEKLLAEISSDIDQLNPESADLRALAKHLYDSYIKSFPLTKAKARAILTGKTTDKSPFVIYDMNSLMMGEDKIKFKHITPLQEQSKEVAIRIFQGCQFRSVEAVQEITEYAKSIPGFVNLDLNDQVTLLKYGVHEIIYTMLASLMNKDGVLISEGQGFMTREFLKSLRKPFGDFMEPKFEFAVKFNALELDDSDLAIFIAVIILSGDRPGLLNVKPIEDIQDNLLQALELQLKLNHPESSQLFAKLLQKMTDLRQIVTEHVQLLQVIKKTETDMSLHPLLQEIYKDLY
Sequence of UniProt Q13126 (whole entry, looked up): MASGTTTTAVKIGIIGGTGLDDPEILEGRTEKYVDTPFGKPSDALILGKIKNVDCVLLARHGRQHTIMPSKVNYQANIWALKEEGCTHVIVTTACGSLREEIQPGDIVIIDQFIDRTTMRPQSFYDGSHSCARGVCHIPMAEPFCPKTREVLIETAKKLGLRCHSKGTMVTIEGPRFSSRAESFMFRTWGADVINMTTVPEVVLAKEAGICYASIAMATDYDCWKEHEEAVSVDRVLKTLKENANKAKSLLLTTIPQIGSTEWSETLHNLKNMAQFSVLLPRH

| Molecule | target | assay | test system | setting | scale | endpoint | value |
| --- | --- | --- | --- | --- | --- | --- | --- |
| COc1ccc(C)c2sc(NS(=O)(=O)c3ccc(F)cc3F)nc12 | CHRM4 | calcium mobilization, positive allosteric modulator | CHO expressing hM4 and Gqi5 | concentration not given, with: acetylcholine EC20 |  | activity | inactive |
| Cn1c(=O)c2[nH]c(SCc3ccccc3)nc2n(C)c1=O | PGR (Homo sapiens, UniProt P06401) | reporter gene, antagonist, MMTV-luciferase | T47D/A1-2 | 10 µM, 24 h, with: 5 nM progesterone | reference: maximal activity | remaining activity | 77% |
| O=C1C=CCCC1 | Uncharacterized protein PH0856 (Pyrococcus horikoshii, UniProt O58586) | reduced FMN reoxidation, substrate, stopped-flow |  | pH 7.0, 37 °C, anoxic |  | kox | 18 s⁻¹ |
| COc1ccc2cc1Oc1ccc(cc1)C[C@H]1c3c(cc4c(c3Oc3cc5c(cc3OC)CCN(C)[C@@H]5C2)OCO4)CCN1C | Heat shock protein HSP 90-alpha, C-terminal domain (HSP90AA1, Homo sapiens, UniProt P07900) | binding, zonal affinity chromatography |  | pH 7.4, 25 °C |  | retention time | 44 min |
| CN(C)CCCNC(=O)CCNC(=O)c1cc(NC(=O)c2cc(NC(=O)c3nc(NC(=O)c4cc(NC(=O)CCCNC(=O)c5cc(NC(=O)c6cc(NC(=O)c7nc(NC(=O)c8nccn8C)cn7C)cn6C)cn5C)cn4C)cn3C)cn2C)cn1C | T1, DNA hairpin, hairpin | competitor, competition fluorescence titration |  | pH 7.4, 25 °C, NaCl 50 mM, with: TAMRA-HP1 |  | Kd | 0.0011 µM |
| N#Cc1cnc(Nc2nc3ccccc3o2)nc1-c1ccc(F)c(F)c1 | Grm5 (Rattus norvegicus, UniProt P31424) | calcium mobilization, negative allosteric modulator |  | with: glutamate EC80 | reference: maximal glutamate response | maximal response | 9.6 ± 0.7% |
| CC(C)(C)OC(=O)Nc1ccc(COc2ccccc2-c2cc(=O)n(C3CCCCC3O)cn2)cc1 (centres unmarked) | CHRM1 | positive allosteric modulator, IP1 accumulation | CHO-M1 cells | 10 µM, 60 min, 37 °C, with: ACh | reference: ACh alone, higher = stronger potentiation | ΔpEC50 of ACh | 1.57 ± 0.3 log units |
| CC[C@H](C)[C@H](NC(=O)[C@H](CCC(=O)O)NC(=O)[C@@H]1CCCN1C(=O)[C@H](CCCNC(=N)N)NC(C)=O)C(=O)N[C@@H](Cc1c[nH]c2ccccc12)C(=O)N[C@@H](Cc1ccc(O)cc1)C(=O)N[C@@H](C)C(=O)N[C@@H](CCC(N)=O)C(=O)NCC(=O)N[C@@H](CC(C)C)C(=O)N[C@@H](CCCCN)C(=O)N[C@@H](CCCNC(=N)N)C(=O)N[C@@H](Cc1ccccc1)C(=O)NCC(=O)N[C@@H](CC(=O)O)C(=O)N[C@@H](CCC(=O)O)C(=O)N[C@@H](Cc1ccccc1)C(=O)N[C@@H](CC(N)=O)C(=O)N[C@@H](C)C(=O)N[C@@H](Cc1ccc(O)cc1)C(=O)N[C@@H](Cc1ccc(O)cc1)C(=O)N[C@@H](C)C(=O)N[C@@H](CCCNC(=N)N)C(N)=O | MCL1 (Homo sapiens, UniProt Q07820) | binding, fluorescence polarization competition |  | 50 nM protein, with: 10 nM fluorescein Bim-BH3 | no competition up to this value | highest concentration without competition | > 10 µM |
| C[C@H](N)C(=O)N[C@@H](C)C(=O)N[C@@H](CCCCN)C(=O)N[C@@H](CCCCN)C(=O)N[C@@H](C)C(=O)N[C@@H](C)C(=O)N[C@@H](C)C(=O)N[C@@H](CCCCN)C(=O)N[C@@H](CCCCN)C(=O)N[C@@H](C)C(=O)N[C@@H](C)C(=O)N[C@@H](C)C(=O)N[C@@H](CCCCN)C(=O)N[C@@H](CCCCN)C(=O)N[C@@H](C)C(N)=O | calf thymus DNA | DNA binding |  | ctDNA 100 µM, with: ethidium bromide 4 µM |  | concentration for full EtBr displacement | 150 µM |
| Cn1ncc2cc(COc3ccccc3-c3cc(=O)n(C4CCCCC4O)cn3)ccc21 (centres unmarked) | CHRM1 | allosteric agonist, IP1 accumulation | CHO-M1 cells | 10 µM, unit not given | reference: maximum ACh response | change in baseline activity | 90.6 ± 2.3 |
| CC[C@H](C)[C@H](NC(=O)[C@H](CC(C)C)NC(=O)[C@@H](NC(=O)[C@@H]1CCCN1C(=O)[C@@H](NC(=O)[C@@H]1CCCN1C(=O)[C@@H](NC(=O)[C@H](CO)NC(=O)[C@H](Cc1c[nH]cn1)NC(=O)[C@@H]1CCCN1C(=O)[C@H](CCCNC(=N)N)NC(=O)[C@H](CCCCN)NC(=O)[C@H](CCCNC(=N)N)NC(=O)[C@H](CCCNC(=N)N)NC(=O)[C@H](CCCNC(=N)N)NC(=O)[C@@H]1CCCN1C(=O)[C@H](CCCNC(=N)N)NC(=O)[C@H](CC(C)C)NC(=O)[C@H](CC(C)C)NC(=O)[C@H](Cc1c[nH]cn1)NC(=O)[C@H](Cc1c[nH]cn1)NC(=O)CNC(=O)[C@@H](N)CSSC[C@H](N)C(=O)NCC(=O)N[C@@H](Cc1c[nH]cn1)C(=O)N[C@@H](Cc1c[nH]cn1)C(=O)N[C@@H](CC(C)C)C(=O)N[C@@H](CC(C)C)C(=O)N[C@@H](CCCNC(=N)N)C(=O)N1CCC[C@H]1C(=O)N[C@@H](CCCNC(=N)N)C(=O)N[C@@H](CCCNC(=N)N)C(=O)N[C@@H](CCCNC(=N)N)C(=O)N[C@@H](CCCCN)C(=O)N[C@@H](CCCNC(=N)N)C(=O)N1CCC[C@H]1C(=O)N[C@@H](Cc1c[nH]cn1)C(=O)N[C@@H](CO)C(=O)N[C@H](C(=O)N1CCC[C@H]1C(=O)N[C@H](C(=O)N1CCC[C@H]1C(=O)N[C@H](C(=O)N[C@@H](CC(C)C)C(=O)N[C@H](C(=O)N[C@@H](Cc1ccccc1)C(=O)N[C@@H](CCCNC(=N)N)C(=O)N[C@@H](CO)C(=O)N1CCC[C@H]1C(=O)O)[C@@H](C)CC)[C@@H](C)CC)[C@@H](C)O)[C@@H](C)CC)[C@@H](C)CC)[C@@H](C)O)[C@@H](C)CC)C(=O)N[C@@H](Cc1ccccc1)C(=O)N[C@@H](CCCNC(=N)N)C(=O)N[C@@H](CO)C(=O)N1CCC[C@H]1C(=O)O | PTPRC (Homo sapiens, UniProt P08575) | flow cytometry | healthy donor PBMC | concentration not given, with: MDA-MB-231 cells | reference: before TNBC cell exposure | binding to PBMC subsets | decreased |
| COC(=O)c1scc(C)c1NC(=O)CN1CCN(C(C)C)CC1 | SCN10A (Homo sapiens, UniProt Q9Y5Y9) | cell membrane chromatography |  |  | higher = stronger binding | capacity factor k′ | 1.4 |
| CC(=O)Cc1cc2c(c(O)c1C(=O)O)-c1c(c(O)c3oc4c(O[C@@H]5OC(C(=O)O)=C(O)[C@H](O)[C@H]5O)cccc4c(=O)c3c1O)CC2 | T2, DNA G4, G-quadruplex (Homo sapiens) | fluorescence intensity titration |  | pH 6.8, KCl 8 mM, one site with Hill slope |  | Kd | 2800 µM |
| COc1ccc(C)c2sc(NC(=O)N3CCCCC3)nc12 | CHRM4 | calcium mobilization, positive allosteric modulator | CHO expressing hM4 and Gqi5 | concentration not given, with: acetylcholine EC20 |  | activity | inactive |
| O=C(O)[C@H]1O[C@@H](Oc2c(-c3ccccc3)oc3ccccc3c2=O)[C@H](O)[C@@H](O)[C@@H]1O | UGT1A1 (Homo sapiens, UniProt P22309) | glucuronidation, substrate, Supersomes |  |  |  | Vmax | 1.74 ± 0.03 nmol/mg/min |
| CSC[C@H]1CN(Cc2c[nH]c3c(N)ncnc23)C[C@@H]1O | MTAP (Homo sapiens, UniProt Q13126) | binding, thermodynamic cycle |  | with: phosphate |  | coupling free energy | -3.6 kcal/mol |
| CCN(CC)C(=O)c1ccc(COc2ccccc2-c2cc(=O)n(C3CCCCC3O)cn2)cc1 (centres unmarked) | CHRM1 | positive allosteric modulator, IP1 accumulation | CHO-M1 cells | 1 µM, 60 min, 37 °C, with: ACh | reference: ACh alone, higher = stronger potentiation | ΔpEC50 of ACh | 0.18 ± 0.1 log units |
| Nc1nc2c(ncn2[C@@H]2O[C@@H]3COP(=O)(O)O[C@H]4[C@@H](O)[C@H](n5cnc6c(N)ncnc65)O[C@@H]4COP(=O)(O)O[C@H]3[C@H]2O)c(=O)[nH]1 | T3, c-di-GMP riboswitch (Clostridium acetobutylicum) | competitor, competition gel-shift |  | 4-24 h, pH 6.8, 22 °C, with: radiolabelled c-di-GMP |  | Kd | 0.271 µM |
| Nc1ncnc2c1ncn2[C@@H]1O[C@H](CO)C[C@H]1O | Adenosine deaminase (Homo sapiens, UniProt P00813) | substrate | HEK293 expressing ADA1, cell homogenate | 37 °C |  | Vmax | 45.8 nmol/mg/min |
| O=c1cc(-c2ccccc2OCc2ccc(-c3ncco3)cc2)ncn1C1CCCCC1O (centres unmarked) | CHRM1 | positive allosteric modulator, IP1 accumulation | CHO-M1 cells | 1 µM, 60 min, 37 °C, with: ACh | reference: ACh alone, higher = stronger potentiation | ΔpEC50 of ACh | 0.96 ± 0.13 log units |
| O=c1cc(N2CCOCC2)oc2c(OCc3ccccc3)cccc12 | PIK3CA (Homo sapiens, UniProt P42336, Q859D) | enzyme activity |  | concentration not given, Gln-Asp swap | reference: wild type | fold change in selectivity | 2.9 |
| CCn1cc(-c2ccc(COc3ccccc3-c3cc(=O)n(C4CCCCC4O)cn3)cc2)cn1 (centres unmarked) | CHRM1 | allosteric agonist, IP1 accumulation | CHO-M1 cells | 1 µM, unit not given | reference: maximum ACh response | change in baseline activity | 43.5 ± 2.6 |
| CC1(C)C=Cc2c(ccc3c2OC[C@@H](c2ccc(O)cc2O)C3)O1 | Gabra1/Gabrb2, with gamma2 subunit (Rattus norvegicus, UniProt P62813+P63138, M310W) | ion current, agonist, two-electrode voltage clamp | Xenopus laevis oocytes expressing α1β2(M286W)γ2 | 30 µM, unit not given, with: no GABA | reference: GABA current | direct activation | 0 |
| CNC(=O)c1ccc(COc2ccccc2-c2cc(=O)n(C3CCCCC3O)cn2)cc1 (centres unmarked) | CHRM1 | allosteric agonist, IP1 accumulation | CHO-M1 cells | 10 µM, unit not given | reference: maximum ACh response | change in baseline activity | 102 ± 4 |
| B1 | SETD7 (Homo sapiens, UniProt Q8WTS6) | peptide methylation, substrate, MALDI-TOF MS |  | 10 µM, 3 h, pH 8.0, 37 °C, enzyme 500 nM, with: SAM 30 µM |  | methylation conversion | ≥ 90% |
| Cn1ncc2ccc(COc3ccccc3-c3cc(=O)n(C4CCCCC4O)cn3)cc21 (centres unmarked) | CHRM1 | positive allosteric modulator, IP1 accumulation | CHO-M1 cells | 1 µM, 60 min, 37 °C, with: ACh | reference: ACh alone, higher = stronger potentiation | ΔpEC50 of ACh | 0.88 ± 0.1 log units |
| CCc1c(C)n(Cc2ccc(-c3ccccc3C(=O)O)cc2)c2ccccc12 | PPARG (Homo sapiens, UniProt P37231) |  | COS-7 | 10 µM, 39 h |  | Emax | 39.2% |
| O=c1cc(-c2ccccc2OCc2ccc(Br)cc2F)ncn1C1CCCCC1O (centres unmarked) | CHRM1 | positive allosteric modulator, IP1 accumulation | CHO-M1 cells | 10 µM, 60 min, 37 °C, with: ACh | reference: ACh alone, higher = stronger potentiation | ΔpEC50 of ACh | 1.33 ± 0.12 log units |
| Nc1nc(Cl)nc2c1ncn2[C@@H]1O[C@@H]2COP(=O)(O)OC2[C@@H]1O (some centres unmarked) | cAMP-dependent protein kinase type II-beta regulatory subunit, holoenzyme with catalytic subunit (Prkar2b, Rattus norvegicus, UniProt P12369, S112A) | PKA holoenzyme activation, activator, fluorescence anisotropy |  |  | reference: RIIβ over RIα, higher = RIIβ-selective | selectivity ratio | 0.9 |

Excerpt of the above:
| Molecule | target | assay | test system | setting | scale | endpoint | value |
| --- | --- | --- | --- | --- | --- | --- | --- |
| O=c1cc(N2CCOCC2)oc2c(OCc3ccccc3)cccc12 | PIK3CA (Homo sapiens, UniProt P42336, Q859D) | enzyme activity |  | concentration not given, Gln-Asp swap | reference: wild type | fold change in selectivity | 2.9 |
| CCn1cc(-c2ccc(COc3ccccc3-c3cc(=O)n(C4CCCCC4O)cn3)cc2)cn1 (centres unmarked) | CHRM1 | allosteric agonist, IP1 accumulation | CHO-M1 cells | 1 µM, unit not given | reference: maximum ACh response | change in baseline activity | 43.5 ± 2.6 |
